Results collected from several papers.
A part holds a random share of what one study measured.

Sample 1
Target: Centromere-binding protein 1, full length, His-tagged (CBF1, Saccharomyces cerevisiae, UniProt P17106, residues 1-351)
Sequence of UniProt P17106 (whole entry, looked up): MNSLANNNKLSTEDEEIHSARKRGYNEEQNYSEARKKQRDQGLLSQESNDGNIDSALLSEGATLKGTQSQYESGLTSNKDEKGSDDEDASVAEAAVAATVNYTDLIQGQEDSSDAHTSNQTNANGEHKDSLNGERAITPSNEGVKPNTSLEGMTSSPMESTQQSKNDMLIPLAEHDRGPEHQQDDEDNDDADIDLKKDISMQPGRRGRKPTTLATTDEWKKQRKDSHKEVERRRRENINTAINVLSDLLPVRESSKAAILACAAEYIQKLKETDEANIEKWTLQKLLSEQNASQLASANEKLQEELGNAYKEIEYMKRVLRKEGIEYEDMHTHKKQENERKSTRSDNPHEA
Technique: competition protein-binding microarray
Form: double-stranded DNA, one strand shown
Sample: in vitro
Tested at: 2 µM
Notes: whole 60-bp probe, lowest competitor level
With: Pho4 competitor, 0.05 µM
Direction: higher = stronger binding
Measurement: fluorescence intensity
Constant ends, left off below: … GTCTTGATTCGCTTGACGCTGCTG
CGGGGTTAAGTTTGGTTCGTGGGTGGCTTGCAGCAG: 63.9 a.u.
TCAAGAAGCAGTTTTATCGTGATGGGTTTCAAATCG: 67.3 a.u.
GACACTTTTACATACGGCGTGCGATGCTGGTATCCT: 72.6 a.u.
AACCCCCAAAGTTGTCATGTTAAGGAGGGCATTTTT: 85.9 a.u.
CAAACGTCTGTTTGCCACGGGCATCGCAAATCTTAC: 70.9 a.u.
AGTGTGGTCTTGGCTCTCGTGCCAGCTGCCTCCGTA: 65 a.u.
CCGGGAAATCGCTGGCACGCACAGCATATAGAGTAG: 74.5 a.u.
GTCTTATCTTTAGTGTGCGTGCAAACTGACTCATCG: 102 a.u.
CAAACTGAGACCTTCCACGTTGTGGGCACCACCACT: 61.9 a.u.
GTCTTGTCTCATTTTCACGTGCAGTTCCCCACTTCA: 758 a.u.
AAATTACTAAGTTGTCACACGACTTACCCCGTATGA: 140 a.u.
TTGTAGTTATATACCCACGTTTGCTGGGTCTAACGA: 68.5 a.u.

Sample 2
Target: Histone acetyltransferase KAT6A, both winged helices, GST fusion (KAT6A, Homo sapiens, UniProt Q92794, residues 1-181)
Technique: protein binding microarray
Form: double-stranded DNA, one strand shown
Sample: in vitro
Tested at: not given
Notes: 8-mer, flanks averaged, mean of 2 arrays, mostly near background
Baseline: not given
Direction: higher = stronger binding
Measurement: E-score
Construct (chain): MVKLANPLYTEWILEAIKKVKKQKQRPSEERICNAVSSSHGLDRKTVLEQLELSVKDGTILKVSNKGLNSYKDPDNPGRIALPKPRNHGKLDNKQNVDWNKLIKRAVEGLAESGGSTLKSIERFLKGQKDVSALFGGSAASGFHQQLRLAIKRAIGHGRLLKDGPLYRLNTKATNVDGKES
AGTCTAAA: -0.254
CGATGGCC: 0.0977
GCACAGGC: -0.033
TCTGTGAA: -0.0337
AAAGAACA: -0.102
GATATGTA: 0.0318
AGACGTTC: -0.0825
CCATCACG: 0.03
CTACAGTC: -0.111

Sample 3
Target: Sal-like protein 4, full length isoform B (SALL4, Homo sapiens, UniProt Q9UJQ4-2, residues 1-616)
Technique: universal PBM
Form: double-stranded DNA, one strand shown
Sample: in vitro
Tested at: not given
Notes: 8-mer, flanks averaged, mean of replicates
Direction: higher = stronger binding
Measurement: E-score
Target sequence (chain): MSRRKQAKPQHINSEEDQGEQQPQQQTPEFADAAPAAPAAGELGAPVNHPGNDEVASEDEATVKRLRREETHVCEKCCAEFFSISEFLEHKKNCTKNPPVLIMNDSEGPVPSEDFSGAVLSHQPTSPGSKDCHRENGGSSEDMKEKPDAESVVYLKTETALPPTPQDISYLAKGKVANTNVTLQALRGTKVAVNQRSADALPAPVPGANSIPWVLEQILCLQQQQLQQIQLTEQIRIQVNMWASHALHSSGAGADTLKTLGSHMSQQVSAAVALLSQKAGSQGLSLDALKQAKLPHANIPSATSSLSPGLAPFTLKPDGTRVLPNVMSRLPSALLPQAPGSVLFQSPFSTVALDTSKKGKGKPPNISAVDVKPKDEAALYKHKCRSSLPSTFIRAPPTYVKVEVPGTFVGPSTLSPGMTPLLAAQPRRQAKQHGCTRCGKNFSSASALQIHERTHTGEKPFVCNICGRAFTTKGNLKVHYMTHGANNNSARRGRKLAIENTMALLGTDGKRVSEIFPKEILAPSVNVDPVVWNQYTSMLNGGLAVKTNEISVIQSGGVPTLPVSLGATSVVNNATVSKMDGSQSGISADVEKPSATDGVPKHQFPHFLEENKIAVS
GAGGCTGA: -0.131
AGCACGTC: -0.119
AAGTGACT: 0.051
ACAATTCG: 0.0382
CCGACAGA: -0.141
AGAACGAG: 0.02
CGCAACGC: -0.213
CATGTCAC: 0.088
ATAATAGC: 0.262

Single results of other studies
PhoQ, residues 284 288 289 292 302 303 SSCLAV  fold induction (PhoP, residues 12 14 15 18 19 SFCSL (Escherichia coli, UniProt P23836); Sort-seq, measured: YFP reporter; E. coli; PhoQ-PhoP variant library, with: 10 µM Mg2+; baseline: high Mg2+ state, higher = stronger signaling): 15.4

For quick reference, copied from above (sample 1):
GTCTTGTCTCATTTTCACGTGCAGTTCCCCACTTCA: 758 a.u.
CAAACTGAGACCTTCCACGTTGTGGGCACCACCACT: 61.9 a.u.
GACACTTTTACATACGGCGTGCGATGCTGGTATCCT: 72.6 a.u.
TCAAGAAGCAGTTTTATCGTGATGGGTTTCAAATCG: 67.3 a.u.
AAATTACTAAGTTGTCACACGACTTACCCCGTATGA: 140 a.u.
